Measurements of several laboratories.
Numbered parts are unrelated; each lists some results of a single study. Positions count from the first letter of the parent shown.

Set 1 — target: CCNA2, cyclin fold, Cln2 fusion (human); technique: yeast growth competition, sequencing; matrix: yeast; notes: weak parent motif; baseline: not given; direction: higher = stronger binding
Starting sequence: SLBP docking peptide (human); ARYKRKLLINDFG
Variant | normalised enrichment score
ARYKRKLLINSFG [D11S] | 1.44
ARYRRKLLINDFG [K4R] | 1.09
MRYKRKLLINDFG [A1M] | 1.77
ARYKRKLLINDFP [G13P] | 1.24
ARYKRKLTINDFG [L8T] | 1.08
ARYYRKLLINDFG [K4Y] | 0.581
ARYKRKALINDFG [L7A] | 0.886
AQYKRKLLINDFG [R2Q] | 1.43
ARKKRKLLINDFG [Y3K] | 0.769
ARYKRKWLINDFG [L7W] | -0.0755
ARYTRKLLINDFG [K4T] | 0.864
ARYKLKLLINDFG [R5L] | 1.7
ARYKRELLINDFG [K6E] | 1.54
ARYKRKLIINDFG [L8I] | 1.5
ARYKRKLLIHDFG [N10H] | 1.05

Set 2 — technique: protein binding microarray; form: double-stranded DNA, one strand shown; matrix: in vitro; tested at: not given; baseline: not given; direction: higher = stronger binding
Target: Histone acetyltransferase KAT6A, both winged helices, GST fusion (KAT6A, Homo sapiens, UniProt Q92794, residues 1-181)
Notes: 8-mer, flanks averaged, mean of 2 arrays, mostly near background
Residues (chain): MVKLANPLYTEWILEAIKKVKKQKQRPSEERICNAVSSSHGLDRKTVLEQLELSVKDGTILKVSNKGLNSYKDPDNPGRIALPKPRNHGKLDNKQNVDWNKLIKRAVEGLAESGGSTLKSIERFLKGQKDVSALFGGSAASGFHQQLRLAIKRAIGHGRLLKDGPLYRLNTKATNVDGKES
Sequence | E-score
GCCGATCA | 0.103
CTCGCCCA | -0.0998
CAAGTCAC | -0.0787
AAGTTGCC | 0.136
ATAATCCG | 0.0295
ATAATTTG | -0.0399
ATTCTCAG | -0.211
CATGCACG | 0.0274
AAACCACT | -0.0699
CCCCGCAA | 0.192
AAAATCGC | 0.049
AAGAATTG | 0.00178
CCCGAGTC | 0.069
ACCAGCGC | 0.187
AGTAGCGA | 0.0129
GAGGCATA | -0.0394
ACACTATG | -0.144
CACCTGAC | -0.0436
GCGCGTAC | 0.388
GCACCAAA | -0.133
CCCCCTTC | -0.357
TGGATGAA | -0.19
AAGGGACA | -0.0265
AGAGCGAA | -0.0849
CGCGAGGC | 0.297

Set 3 — technique: DHFR PCA, deep sequencing; matrix: yeast; with: (+)-ABA 17 µM; baseline: wild-type fitted maximum; direction: higher = stronger binding
Target: ABI1, truncated, D143A, DHFR fusion (Arabidopsis thaliana)
Notes: methotrexate growth selection, single substitutions
Starting sequence: PYL1, truncated, DHFR fusion (Arabidopsis thaliana); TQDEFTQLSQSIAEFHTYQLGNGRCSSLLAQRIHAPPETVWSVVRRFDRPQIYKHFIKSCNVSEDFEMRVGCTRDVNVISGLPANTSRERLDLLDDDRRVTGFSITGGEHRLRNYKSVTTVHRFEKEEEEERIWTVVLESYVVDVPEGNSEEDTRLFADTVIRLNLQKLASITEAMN
Variant | relative binding score
R98M | 69.7%
R74D | -16.5%
D3Q | 76.7%
F66N | 58.3%
I105V | 81%
D92I | 29.1%
R163H | 49.9%
A13T | 77.7%
E139N | 67%
A13N | 77.4%
G102W | 21.9%
K58S | 76.4%
E151A | 91.5%
E147K | 80.2%

Set 4 — technique: RNA Bind-n-Seq; form: RNA; matrix: in vitro; tested at: 1 µM; notes: whole 134-nt RNA, ends assumed; with: 150 mM KCl; baseline: input library; direction: higher = stronger binding
Target: Ras GTPase-activating protein-binding protein 1, C-terminal RGG region (G3BP1, Homo sapiens, UniProt Q13283)
Chain of UniProt Q13283 (whole entry, looked up): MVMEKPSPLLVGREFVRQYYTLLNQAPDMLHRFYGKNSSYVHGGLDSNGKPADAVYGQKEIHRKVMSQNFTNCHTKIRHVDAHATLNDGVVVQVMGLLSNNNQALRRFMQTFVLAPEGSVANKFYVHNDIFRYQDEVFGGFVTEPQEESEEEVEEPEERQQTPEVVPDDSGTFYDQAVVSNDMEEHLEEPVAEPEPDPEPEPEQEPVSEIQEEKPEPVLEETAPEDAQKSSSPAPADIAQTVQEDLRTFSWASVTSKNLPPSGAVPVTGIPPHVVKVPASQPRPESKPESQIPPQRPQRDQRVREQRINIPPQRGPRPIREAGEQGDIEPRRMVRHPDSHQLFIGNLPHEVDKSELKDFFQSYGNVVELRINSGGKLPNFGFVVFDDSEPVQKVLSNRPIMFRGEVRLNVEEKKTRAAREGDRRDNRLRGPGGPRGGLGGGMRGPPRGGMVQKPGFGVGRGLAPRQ
Constant ends, left off below: GGGAGUUCUACAGUCCGACGAUC … UGGAAUUCUCGGGUGUCAAGG
Sequence | log2 enrichment
CCUGUGCUACACAUCGUAUGUACCGAAUCAAACCCCCCCAAACCCCCCCAAACCCCCAAAAAAGUAUUAUGUUACGCCGUUCGGAUCUGC | -0.918
AAGUCCUGUGCUACACAUCGUAUGUACCGAAUCGGGGCCCCGGCCCCGGGCCCCGGAAAGUAUUAUGUUACGCCGUUCGGAUCUGCACUU | -1.96
CCUCAAGUCCUGUGCUACACAUCGUAUGUACCGAAUCGGGAAGGAAGGAAGGGAAAGUAUUAUGUUACGCCGUUCGGAUCUGCACUUCCA | -1.49
ACCAUGCAGGUGGCCAUCUUUGGGAAGUGGGGCAAGGGGGGGAUAGGGAGGGGGGUAACACUUUGGGAACAGGUGGUCCCAGGUCGUUUC | -1.37
CACAGACAACACGCACCCACACAGACACAGAGGGAAGGGGUUGGGAUGGGGACAGGGUGCACACCAGGGCGGGGUAGGACCCCAGCCCCU | -0.0318
UGGGAGGUGGAUUUUGUUUAUUUUUUUAGCUCAUUUCCAGGGGUGGGAAUUUUUUUUUAAUAUGUGUCACGAAUAAAGUUGUUUUUGAAA | 3.45
CAAGUCCUGUGCUACACAUCGUAUGUACCGAAUCGGAAAAAAAGGUUUGGUUUGGAAAGUAUUAUGUUACGCCGUUCGGAUCUGCACUUC | -1.91
UGGCCCUGGCGGCAUGCGGGGAGGAAGAGGUGGCCUCAUGGAUCGUGGUGGUCCCGGUGGAAUGUUCAGAGGUGGCCGUGGUGGAGACAG | 2.07
GUCCUGUGCUACACAUCGUAUGUACCGAAUCGGUUUUUUGGUUUUUUGGGUUUUUUGGGAAAGUAUUAUGUUACGCCGUUCGGAUCUGCA | -1.66
GUCCUGUGCUACACAUCGUAUGUACCGAAUCGGGGCCCCCGGGCCCCCGGCCCCCGGGAAAGUAUUAUGUUACGCCGUUCGGAUCUGCAC | -1.04
CAAGUCCUGUGCUACACAUCGUAUGUACCGAAUCGGGCCCGGGGCCCGGGCCCGGGAAAGUAUUAUGUUACGCCGUUCGGAUCUGCACUU | -2.25
GCAGGAAGUAAAAACAAAUGGAAAUGCUUCGGAUAGUGGCAGGGGUGGGGCUUGCUAAGGAAAGGGUGGGAUGGGAGUGGGUAAAGAGUU | 1.66
GAGCAAAGAGCCAUUCAGCUUCAGUCUUUACAUACCAUGAAUAAAACAUUAAAACAUCAUAUGGAGAAGUUUACAUGGUGAUUGUUCACC | -1
UCCUGUGCUACACAUCGUAUGUACCGAAUCAAACCCCCCCAAAUUUUUAAAUUUUUAAAAAAGUAUUAUGUUACGCCGUUCGGAUCUGCA | -0.47

Set 5 — technique: RNA Bind-n-Seq; form: RNA; matrix: in vitro; tested at: 365 nM; baseline: no-protein control; direction: higher = stronger binding
Target: RNA binding protein fox-1 homolog 2, RRM domain, GST-SBP tag (RBFOX2, Homo sapiens, UniProt O43251-10, residues 100-194)
Notes: natural RNA segment, single round, ends assumed
Constant ends, left off below: GGGAGUUCUACAGUCCGACGAUC … UGGAAUUCUCGGGUGCCAA
Construct (chain): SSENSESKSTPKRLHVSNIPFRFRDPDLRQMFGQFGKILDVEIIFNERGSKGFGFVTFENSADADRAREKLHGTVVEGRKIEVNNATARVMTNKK
Sequence | RBNS enrichment (R)
CAAAAAUAUUUAAGUGUGCCUAUGAUAAUGUCUGAACCUGAGUUUAAGAAAUGUGAUGUAGCCGGGCGUGGUGGCACACGCCUUUAAUCCCAGCACUUGGGAGGCAGACG | 1.2
CCCUUCCUGGGACUCGCCCUCAUCCUCUUCCUGCUCCCCUUCCUGGGGUGCAGCCUAAAAGGACCUAUGUCCUCACACCAUUGAAACCACUAGUUCUGUCCCCCCAGGAG | 0.211
GCUGGGUGUCCCGGGUCGCGGGGAGGCAGCUCAGCUCUUAGGAGCAAGUUGUGGGGGCUUUUCAAGAGGGGCCAGGCUUCCUGGAGGGUGACUGAUGUGGCCGAAGCAGG | 0.618
UAGAGUGGGGCGCUGCUGUAAAUACCCAAAAAUGUGGAAGCAACUUUGGAACUGGGUAACAGGCAGAGGUUGGAACAGUUUGGAGGGAUCAGAAGACAGGAAAAUGUGGG | 1.25
UUCUACUUUGAUAUGACUGUUUUUCGGACAGUUUAUUUGUUGAGAGUGUGACCAAAAGUUACAUGUUUGCACCUUUCUAGUUGAAAAUAAAGUGUAUAUUUUUUCUAUAA | 0.845
GAAAAUGACCGCUCCUUGACCAAACUGAGAUGCACUUGGUGUGUGGGAACUGAUUGCUUCCUCCCUGUUUAUAAUUCAGUGAAUAAUCACGGGCCCAAUAUUUUACUAAC | 0.652
AAGAUGAAUGGCGUCUGUGGGUUGCUAACUGAACUUUGAAGACCCGCUGCAAAACGCGCAGAUGUGCAGCAGAUUGGAAGGAGACACAGAUGGUCCUUUUUUUCCUGUUU | 0.396
GUGUUUUUAUUGCUCGCCCAGACACCAUGUGCAAUAAGAUUGGUGUUCGUUUCCAUCAUGUCUGUAUACUCCUGUCACCUAGAACGUGCAUCCUUGUAAUACCUGAUUGA | 0.601
GGGAUUACAGGUGUGAGCCACCGCACGUAGCAUUUACAUUAGGUAUUACAAGUAAUGUAAAGAUGAUUUAAGUAUACAGGAGGAUGUGAAUAGGUUAUAUGCAAGCACUA | 2.43
ACUGGUGUGGAAUUAAACUCUUAUUGGCCAAAUGCCUGUUUUCAUGAGGUGACUUGUAAAGAUUUUGUUAAGCUCAGGAUUUUUAAUAACACAGUUCACAAAACAGUACA | 0.326
UGCUCUCAGCCAGCACCACUGCCCGCUGAUCUCCGUGAUGAUUAACCUGCUGCUUCCUUACACAAGGCCUGCCCAGGCUGAAGCUCCUGUUUGACCACUCCCCCCCCCCC | 0.627
AACCUGGUCCUCGGGGAAAAAGAGAAGUCACCUUUGGACCUUCGACCUAGCUUUGUCUUUGCCCCAGGUCCCCAUGAACUUCCCUGUCCUCAGCUGAAUGCCUCCAAGUC | 0.418

Set 6 — technique: two-hybrid; baseline: out of 4 tests; direction: higher = firmer interaction
Partner: ARF18 482-602 (Arabidopsis thaliana, UniProt Q9C5W9)
B1: ARF2 727-859 (Arabidopsis thaliana, UniProt Q94JM3); chain TKTNSSRSCTKVHKQGIALGRSVDLSKFQNYEELVAELDRLFEFNGELMAPKKDWLIVYTDEENDMMLVGDDPWQEFCCMVRKIFIYTKEEVRKMNPGTLSCRSEEEAVVGEGSDAKDAKSASNPSLSSAGNS
B2: ARF5 788-902 (Arabidopsis thaliana, UniProt P93024); chain ATPRVRTYTKVQKTGSVGRSIDVTSFKDYEELKSAIECMFGLEGLLTHPQSSGWKLVYVDYESDVLLVGDDPWEEFVGCVRCIRILSPTEVQQMSEEGMKLLNSAGINDLKTSVS
B3: IAA32 (Arabidopsis thaliana, UniProt Q8RYC6); chain MDPNTPADFFKGSSKFHTYYSQTKKGGGVIDLGLSLRTIQHETYLPPARMIGLDGYGELIDWSQPSYNSITQLKSEDTGHQRLAQGYYNNEGESRGKYAYVKVNLDGLVVGRKVCLVDQGAYATLALQLNDMFGMQTVSGLRLFQTESEFSLVYRDREGIWRNVGDVPWKEFVESVDRMRIARRNDALLPF
B4: ARF16 570-670 (Arabidopsis thaliana, UniProt Q93YR9); chain SPCSKKVHDASGLETGHCKVFMESDDVGRTLDLSVLGSYEELSRKLSDMFGIKKSEMLSSVLYRDASGAIKYAGNEPFSEFLKTARRLTILTEQGSESVVV
Construct (chain): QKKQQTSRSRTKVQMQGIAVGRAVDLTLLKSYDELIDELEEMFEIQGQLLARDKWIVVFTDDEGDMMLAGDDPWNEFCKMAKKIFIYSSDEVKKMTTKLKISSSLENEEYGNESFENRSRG
Sequence | positive tests
B1 (ARF2 727-859) | 0
B2 (ARF5 788-902) | 1
B3 (IAA32) | 2
B4 (ARF16 570-670) | 0

Some of these lines once more (set 2):
Sequence | E-score
AAGTTGCC | 0.136
AGTAGCGA | 0.0129
GCCGATCA | 0.103
CGCGAGGC | 0.297
CCCGAGTC | 0.069
